# Measured values gathered from unrelated publications.
# A part holds a random share of what one study measured.
# Sequence of UniProt P68036 (whole entry, looked up): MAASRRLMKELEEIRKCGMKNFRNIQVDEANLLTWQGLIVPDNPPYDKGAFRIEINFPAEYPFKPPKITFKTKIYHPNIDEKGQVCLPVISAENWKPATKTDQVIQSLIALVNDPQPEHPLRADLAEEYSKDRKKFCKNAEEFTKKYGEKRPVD
# Sequence of UniProt P63146 (whole entry, looked up): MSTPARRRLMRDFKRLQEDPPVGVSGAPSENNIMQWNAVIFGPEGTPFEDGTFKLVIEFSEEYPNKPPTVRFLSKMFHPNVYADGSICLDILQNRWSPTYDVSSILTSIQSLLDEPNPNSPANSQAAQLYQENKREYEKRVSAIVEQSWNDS
# Sequence of UniProt Q969T4 (whole entry, looked up): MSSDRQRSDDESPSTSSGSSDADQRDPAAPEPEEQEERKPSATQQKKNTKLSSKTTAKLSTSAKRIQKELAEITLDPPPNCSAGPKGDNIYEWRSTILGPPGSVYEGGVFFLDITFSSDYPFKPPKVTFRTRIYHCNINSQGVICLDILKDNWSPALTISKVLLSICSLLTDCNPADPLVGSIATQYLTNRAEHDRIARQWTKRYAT
# Sequence of UniProt P61081 (whole entry, looked up): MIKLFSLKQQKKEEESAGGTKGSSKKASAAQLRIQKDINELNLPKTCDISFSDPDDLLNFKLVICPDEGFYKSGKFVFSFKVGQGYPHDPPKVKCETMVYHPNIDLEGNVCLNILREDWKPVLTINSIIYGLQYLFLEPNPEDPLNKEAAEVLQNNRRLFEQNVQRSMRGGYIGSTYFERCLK
# Sequence of UniProt Q16763 (whole entry, looked up): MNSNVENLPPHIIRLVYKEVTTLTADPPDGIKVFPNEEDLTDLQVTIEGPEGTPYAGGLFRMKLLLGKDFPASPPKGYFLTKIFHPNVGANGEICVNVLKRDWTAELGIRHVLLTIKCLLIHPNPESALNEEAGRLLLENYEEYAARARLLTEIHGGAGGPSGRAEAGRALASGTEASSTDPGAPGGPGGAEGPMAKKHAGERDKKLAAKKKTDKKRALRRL
# Sequence of UniProt Q9H832 (whole entry, looked up): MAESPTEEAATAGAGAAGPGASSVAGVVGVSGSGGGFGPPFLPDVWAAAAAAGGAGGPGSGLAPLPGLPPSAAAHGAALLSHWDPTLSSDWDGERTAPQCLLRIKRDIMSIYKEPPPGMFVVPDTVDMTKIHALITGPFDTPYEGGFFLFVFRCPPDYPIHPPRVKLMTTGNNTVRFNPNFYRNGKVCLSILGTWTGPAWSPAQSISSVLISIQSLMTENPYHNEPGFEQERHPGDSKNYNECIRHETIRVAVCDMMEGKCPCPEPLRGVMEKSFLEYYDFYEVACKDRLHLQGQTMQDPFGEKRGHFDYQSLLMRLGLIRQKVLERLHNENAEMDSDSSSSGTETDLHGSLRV
# Sequence of UniProt Q8N2K1 (whole entry, looked up): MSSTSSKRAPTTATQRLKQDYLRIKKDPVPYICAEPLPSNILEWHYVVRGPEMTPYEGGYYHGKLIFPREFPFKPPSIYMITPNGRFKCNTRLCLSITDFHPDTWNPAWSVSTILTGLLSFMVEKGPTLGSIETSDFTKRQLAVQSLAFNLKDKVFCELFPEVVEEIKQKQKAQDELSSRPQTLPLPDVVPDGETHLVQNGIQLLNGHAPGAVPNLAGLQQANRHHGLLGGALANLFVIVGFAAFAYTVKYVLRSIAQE
# Sequence of UniProt O00762 (whole entry, looked up): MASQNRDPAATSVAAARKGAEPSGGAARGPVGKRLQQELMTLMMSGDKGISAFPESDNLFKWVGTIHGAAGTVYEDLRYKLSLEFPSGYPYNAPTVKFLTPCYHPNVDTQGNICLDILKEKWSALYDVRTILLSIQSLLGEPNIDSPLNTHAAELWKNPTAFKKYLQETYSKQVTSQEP

# Set 1
# Target: Histone acetyltransferase KAT6A, both winged helices, GST fusion (KAT6A, Homo sapiens, UniProt Q92794, residues 1-181)
# Method: protein binding microarray
# Form: double-stranded DNA, one strand shown
# Medium: in vitro
# Tested at: not given
# Setting: 8-mer, flanks averaged, mean of 2 arrays, mostly near background
# Relative to: not given
# Direction: higher = stronger binding
# Residues (chain): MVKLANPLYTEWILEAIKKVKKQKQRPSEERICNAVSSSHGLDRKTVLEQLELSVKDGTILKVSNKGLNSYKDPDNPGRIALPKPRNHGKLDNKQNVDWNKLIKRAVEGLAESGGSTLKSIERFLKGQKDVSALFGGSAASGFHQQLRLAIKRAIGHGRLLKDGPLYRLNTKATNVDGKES
Strand,E-score
TACCTTGA,0.0264
AAATCAAC,-0.138
CATCCCAC,0.00331
CAACCCAC,-0.207
ACATCGCG,0.259
CGCAGCAG,0.139
CGGCGCAA,0.291
ACTTAAAA,0.0049
GGGGCATA,-0.163
CCCACAGA,-0.253
CAGGAACG,0.144
AATTCTCA,-0.204
AATGTGTG,-0.0896
CATCGAAC,-0.0179
ACTTCAGA,-0.00095
CGTGCTGC,0.0264
GCTATGAC,0.0761
AACCAGAC,-0.107
GTTGGATA,-0.125
AGATCCAT,-0.109
CAGCGGGC,0.179
ACGGGGCT,0.0794

# Set 2
# Target: RNA binding protein fox-1 homolog 2, RRM domain, GST-SBP tag (RBFOX2, Homo sapiens, UniProt O43251-10, residues 100-194)
# Method: RNA Bind-n-Seq
# Form: RNA
# Medium: in vitro
# Tested at: 365 nM
# Setting: natural RNA segment, single round, ends assumed
# Relative to: no-protein control
# Direction: higher = stronger binding
# Constant ends, left off below: GGGAGUUCUACAGUCCGACGAUC … UGGAAUUCUCGGGUGCCAA
# Residues (chain): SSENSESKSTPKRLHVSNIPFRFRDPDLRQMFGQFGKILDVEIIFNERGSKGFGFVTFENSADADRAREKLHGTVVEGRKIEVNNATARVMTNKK
Strand,RBNS enrichment (R)
GGCACGAAGAAAAGAAACAUGAGCUCUCUAGACUUCCUGUAUGUUCCCAACUGUUGGCUAGAUAAUCAUCUGAGGCUAUCAUUAUAGUGCUGAUGUCCAAGACUUAACCA,0.461
UGUGGAAGAGAAAGAUGGUCUCCUGAGUUUUUUAAAAUAGCUCACUUGGUGUGAUAUGGCUGACUCCCAUGUCCUUCUUUCUUGGCUGAAGCAAACCAGUUAAUCUCAGU,0.368
CCUCCUUCUCCUUCUCACACACAACUGUCCAUACUAACAAGUUUGGUGCAUGUCUGUUCUUCUGUAGGGAGAAGCUUUAGCUUCAUUUUACUAAAAAGAUUCCUCGUUAU,0.247
CUCUAGACCAAGGCAGGCAGCCCCGACAUCUGCUUCCUCUAUCGCCCAAUGCAAAAUCGAUGAAAUGGGGAGUUCUCUGGGCCAGGCCACAUUCACAUUCCCCUCCCCCU,0.419
UCAGUGUCCUGAAAAAUGGAACCACCCACUAACCAUAUGCACUGGCUGCCCAGGUGGCUGCACUCCGGGGAUCACGUUUCAGUACUGAGUUCCUUCACGCACUUGGUUCA,0.768
AGAGGAGCUCAAAGUUUGUGUGUAUUAAUAUGAAUUAGCUAACGUGAACUAUGUUUUGGAAAGUUACAACUACUUUUACAUUAAGGAUGAGAAACUGGAGUGUUUUUGAU,0.906
UUCCCUUUCUACCAACCCCGUGGGAGUUCUACAGUACGGCUGUCCUGACACGGCUCUUGUCUAGGACCAGGGCGGCACAUCCCACCAGCGCCAUCUUCCUGGACAGAGUG,0.392
UGUGUGUGUGCACGCGCAGUGUCCAUCAGUAUCAGUGCCUGCCUGAGUUAGGAAAAUUACAUUCCUGGUUCUGUAUUGAGGAGAAGGAUGUAUAAAGCAACAUGAAACAU,1.04
GGAAGUUUUGUUUACUAGGAGCCUGACUUCCCAGCUCACAAAGGGUGAAAUGAAAGCUGAAGUACAGACAGGAUCUUAGUAGGUAUUUUAGGUCCAGGGCCAUGAAGACU,0.561
AGCCAGGAAGGAGACUGCACAGUUUUGAAAGCACAGCCCGUCAGGUCCGGCUCUGCGUCUCCCUCUCUGCAGCCUGUGUAAGCUAUUAUAAUUAAAAUGGUUUUCCGGGA,0.683
GGAACUUUUAAAUUCCUUAAUGUUAAUAUUAAUGUUCAUGUUAAUGUCCUAAGCUGGCCAUUAACAUGAACUACGUCACUUUUCUUUUGAGGGUCAAAUAUUUAGUGCAU,0.528
GGUUGACAGGCCUGUGAAAUCCCCUGUCCCACCCUGGAAUUUCAAAUAAAGAGCUUUUUACCCCUUCUUGCGUGGUGCAUAGGGGACGGGAAGCUGGGAACUAGUCAGAG,0.393

# Set 3
# Sequence: B1 (MKRN3 RING domain)
# Method: yeast two-hybrid
# Medium: yeast
# Setting: mostly zero background
# Relative to: not given
# Direction: higher = stronger interaction
# B1: MKRN3 RING domain (UniProt Q13064); chain FAVQRGMDKVCGICMEVVYEKANPNDRRFGILSNCNHSFCIRCIRRWRSARQFENRIVKSCPQCRVTSELVIPSE
target,lacZ reporter activity
UBE2B UBC core domain (UniProt P63146),0
UBE2E3 UBC core domain (UniProt Q969T4),0
UBE2J2 UBC core domain (UniProt Q8N2K1),0
UBE2S UBC core domain (UniProt Q16763),0
UBE2L3 UBC core domain (UniProt P68036),0
UBE2C UBC core domain (UniProt O00762),0
UBE2M UBC core domain (UniProt P61081),0
UBE2I UBC core domain (UniProt P63279),0
UBE2Z UBC core domain (UniProt Q9H832),0

# Set 4
# Target: RING finger protein unkempt homolog, zinc fingers 1-6, GST-SBP tag (UNK, Homo sapiens, UniProt Q9C0B0, residues 30-357)
# Sequence of UniProt Q9C0B0 (30-357, looked up): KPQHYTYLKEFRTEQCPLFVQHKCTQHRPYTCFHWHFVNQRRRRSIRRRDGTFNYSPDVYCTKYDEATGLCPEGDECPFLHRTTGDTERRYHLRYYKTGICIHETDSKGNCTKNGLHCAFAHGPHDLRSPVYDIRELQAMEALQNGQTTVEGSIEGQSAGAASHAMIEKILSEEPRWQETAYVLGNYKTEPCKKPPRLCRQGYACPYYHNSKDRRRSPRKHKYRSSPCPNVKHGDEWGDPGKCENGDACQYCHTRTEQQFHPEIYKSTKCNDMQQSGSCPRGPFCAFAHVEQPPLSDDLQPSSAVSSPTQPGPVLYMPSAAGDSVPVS
# Method: RNA Bind-n-Seq
# Form: RNA
# Medium: in vitro
# Tested at: not given
# Setting: RNA with constant flanks, human-mouse chimeric sites, ends assumed
# Relative to: input RNA pool
# Direction: higher = stronger binding
# Constant ends, left off below: GGGAGUUCUACAGUCCGACGAUC … CAACAGAGGAUUGAGCAUCA
Strand,bound/input enrichment [ratio]
AAAGAACCUCUCUCUGAUGAAGAUGAGGAAGACAAUGAUGAUGUUGAACCCAUUUCUGAAUUUCGAUUUGUGCCUAGUGAUAAGUCAGCAUUGGAGGCAAUGUUCACAGCAAUGUGUGAG,0.282
ACCAUUUUCGCGGUUCAGGCUUUGUGUGUAGUUCACUUACGGUAUUAAAUUAUUAUUCUGCUUAGCUUAUAAUAAGGAUAAUUGCAUUUAAAGAGGUGAUCACUGAAUACUCUGAAACUU,0.909
UUCAAAGAAAAGGGCAGCUGUGUCAUUUCAUAAGUAACUCUGGGGGAUAAGUGGAAGGUUCUUUUGUUUAAUUUUCCCCCAAAUGAAGCCAAAGUGUGUGUUGAAGAAGGAAGAAUGAAU,0.187
GGACAUCUGUCAAAUUGUAUUUCCCGUAAAAACGUAGUGAACACUCUGAUACACUUCAUCUGCUUGUACAUCUGUAUGAUAGAGAAAUGUAAAUAUGUUAAUCCAAGCAAUGUGUCACUU,0.459
CGGAAGUUCUUGAUUUAUCAUUUUUCUCUUUUCUUUCUUUCCUUUAGGAAAAGCCUAAAGAUUAGGUUGUAAGAAAAACAGAAGCCAUGUUUCGAAGACCUGUGUUAAUUACAGGUAGUC,0.144
GUUCGGCUCUGGGAUCAUGCUACUAUGACAGAAGUGAAAUCUCUGAAUUUUAAUAUGUCUGUUAGCAGUAUGGAAUAUAUUCCUGAAGGAGAGAUUUUGGUUAUUACUUAUGGACGAUCU,0.353
GUGUCCUGCUUUCAACUUAAAUCACUGCAUUUUUACUACUGUUCUGUUAAAAUCAGGACUGUAGCGCUGUGUCACCACAUGAGAGUUCAGAAGCAGCCUUUCUGUGGAGGGUGGGAAUGA,0.145
GGCCUGGGACCGUCCUGGGCUAGUACAAAUAGCGGCAGUGGAGGCUCAGAGGAAAGUUUGUUAGUGGGAGGCAGUGGUAGAGGCCGUCAUGUACGGUCCUUUACUCGAUAGAUGUGUUCU,0.581
UCAUUUUUCUCUUUUCUGAUCGUCAGGUAGGAAAAGCCUAAAGAUUAGGUUGUAAGAAAAACAGAAGCCAUGUUUCGAAGACCUGUGUUACAGGUACUUCGUCAGUUUGUAAGACAUGAG,1.48
GGUGGGGUGGUCAUUGCGCCAAUUGAGGCUGAUUUUCAUGAGUCGCCUUCAAAACUCUCGCAUAGGGUUGACAAUGUGGGGGGGUGGGGGAUCCAGCUUAUUCUUUUAUUUUCAAGUCCA,0.933
UGACAAGGGCACUGCAGAGCCAUGCCUUUCUUGGACAUACAGAAAAAGCUGGGCAUCAACAUAGAUCGGCACUUUAUGUUCCUAAGCGCAGAACAGCCCUAUAAGAACGCCGCUCGGUGC,0.107

# A few entries again (set 4):
Strand,bound/input enrichment [ratio]
UUCAAAGAAAAGGGCAGCUGUGUCAUUUCAUAAGUAACUCUGGGGGAUAAGUGGAAGGUUCUUUUGUUUAAUUUUCCCCCAAAUGAAGCCAAAGUGUGUGUUGAAGAAGGAAGAAUGAAU,0.187
GGACAUCUGUCAAAUUGUAUUUCCCGUAAAAACGUAGUGAACACUCUGAUACACUUCAUCUGCUUGUACAUCUGUAUGAUAGAGAAAUGUAAAUAUGUUAAUCCAAGCAAUGUGUCACUU,0.459
CGGAAGUUCUUGAUUUAUCAUUUUUCUCUUUUCUUUCUUUCCUUUAGGAAAAGCCUAAAGAUUAGGUUGUAAGAAAAACAGAAGCCAUGUUUCGAAGACCUGUGUUAAUUACAGGUAGUC,0.144
GUUCGGCUCUGGGAUCAUGCUACUAUGACAGAAGUGAAAUCUCUGAAUUUUAAUAUGUCUGUUAGCAGUAUGGAAUAUAUUCCUGAAGGAGAGAUUUUGGUUAUUACUUAUGGACGAUCU,0.353
GUGUCCUGCUUUCAACUUAAAUCACUGCAUUUUUACUACUGUUCUGUUAAAAUCAGGACUGUAGCGCUGUGUCACCACAUGAGAGUUCAGAAGCAGCCUUUCUGUGGAGGGUGGGAAUGA,0.145
GGCCUGGGACCGUCCUGGGCUAGUACAAAUAGCGGCAGUGGAGGCUCAGAGGAAAGUUUGUUAGUGGGAGGCAGUGGUAGAGGCCGUCAUGUACGGUCCUUUACUCGAUAGAUGUGUUCU,0.581
UCAUUUUUCUCUUUUCUGAUCGUCAGGUAGGAAAAGCCUAAAGAUUAGGUUGUAAGAAAAACAGAAGCCAUGUUUCGAAGACCUGUGUUACAGGUACUUCGUCAGUUUGUAAGACAUGAG,1.48
